{"data": "Assay results from different studies", "organism": "Salmonella typhimurium", "note": "Protocols differ between the studies behind these lines. Numbers after ± are the reported error."}
{"SMILES": "CC(=O)N1CCC(C(=O)N2CCN3C(=O)c4cc(-c5ccccc5)ccc4NC(=O)C3C2)CC1 (stereo not drawn)", "system": "TA98", "conditions": "158 µg/plate", "measurement": "revertants per plate", "result": 25.5}
{"SMILES": "COCCN(CCOC)N=O", "test": "mutagenicity, Ames plate incorporation", "system": "TA1535", "conditions": "50 µg/plate, 3 d, without S9, methanol", "measurement": "revertant colonies per plate", "result": "17 ± 6"}
{"SMILES": "O=[N+]([O-])c1ccc(N2CCC(NCCC(O)c3ccc(F)c4ccccc34)CC2)c(C(F)(F)F)c1 (stereo not drawn)", "test": "SOS response, SOS/umu test", "system": "TA1535/pSK1002, TGA medium", "conditions": "1.53e-05 mg/mL, 4 h, together with: 10% rat liver S9", "scale": "baseline: untreated", "measurement": "induction factor", "result": 1}
{"SMILES": "CN(CC(C)(C)C)N=O", "test": "mutagenicity, Ames plate incorporation", "system": "TA98", "conditions": "5000 µg/plate, without S9, methanol", "measurement": "revertant colonies per plate", "result": "20 ± 9"}
{"SMILES": "Cc1cc(C(=O)NC(C)(C)COc2cccc3c2C(N)=NS(=O)(=O)N3)cc(C)n1", "test": "Ames test, confirmatory", "system": "TA1535", "conditions": "3333 µg/plate", "scale": "baseline: solvent control", "measurement": "revertant ratio", "result": 0.8}
{"SMILES": "Fc1ccc(C2=CCNCC2)cc1", "test": "SOS/umu test", "system": "TA1535/pSK1002", "conditions": "0.063 mg/mL, 4 h, without S9, full range", "measurement": "survival", "result": "94.5%"}
{"SMILES": "CC(C)N(C)N=O", "test": "mutagenicity, Ames plate incorporation", "system": "TA1537", "conditions": "5000 µg/plate, 3 d, without S9, methanol", "measurement": "revertant colonies per plate", "result": "13 ± 3"}
{"SMILES": "COc1cccc(-c2n[nH]c(SCc3ccccn3)n2)c1OC", "test": "Ames test, plate incorporation", "system": "TA100", "conditions": "2.0 mg/plate, with rat liver S9", "measurement": "revertant colonies per plate", "result": 103}
{"SMILES": "O=[N+]([O-])c1ccc(N2CCN(CCC(O)c3ccc(F)cc3)CC2)c(C(F)(F)F)c1 (stereo not drawn)", "test": "SOS/umu test", "system": "TA1535/pSK1002", "conditions": "0.002 mg/mL, 4 h, without S9, full range", "measurement": "survival", "result": "110%"}
{"note": "Excerpt of the above:"}
{"SMILES": "COc1cccc(-c2n[nH]c(SCc3ccccn3)n2)c1OC", "test": "Ames test, plate incorporation", "system": "TA100", "conditions": "2.0 mg/plate, with rat liver S9", "measurement": "revertant colonies per plate", "result": 103}
